Results of several laboratories.
Compare with care: the assays were run in different laboratories.

SMILES	assay	system	conditions	endpoint	value
CCC(c1nnnn1Cc1cccs1)N1CCC(c2nc3cc(N)cc(F)c3s2)CC1 (stereo not shown)	light scattering	DNase I buffer	5% DMSO	critical aggregation concentration	46.6 µM
CCCCCCCCCCCC(=O)N[C@@H](CC(C)C)C(=O)N[C@@H](CCCNC(=N)N)C(=O)N[C@@H](CCC(=O)O)C(=O)N[C@@H](CC(C)C)C(=O)N[C@@H](Cc1c[nH]cn1)C(=O)N[C@@H](CC(C)C)C(=O)N[C@@H](CC(N)=O)C(=O)N[C@@H](CC(N)=O)C(=O)N[C@@H](CC(N)=O)C(N)=O		PBS	after atomizer spraying	critical gelation concentration	1 mM
O=C(/C=C/c1ccc(O)c2oc(-c3ccc(O)c(O)c3)cc12)O[C@H](Cc1ccc(O)c(O)c1)C(=O)O	RWG biosensor	HBSS HEPES buffer	pH 7.2	critical aggregation concentration	1 µM
C[N+](C)(C)CCOP(=O)([O-])OCC(COC(=O)CCCCCOC(=O)CCCCC1CCSS1)OC(=O)CCCCCOC(=O)CCCCC1CCSS1 (stereo not shown)	pyrene fluorescence	water		critical micelle concentration	~63.1 µg/mL
COCCOCCOCCOCCOCCOCCOCCOCCOCCOCCOCCOCCNC(=O)CCC1(Cc2ccccc2)c2ccccc2-c2ccc(-c3sc(-c4c5c(c(-c6sc(-c7ccc8c(c7)C(CCC(=O)NCCOCCOCCOCCOCCOCCOCCOCCOCCOCCOCCOCCOC)(Cc7ccccc7)c7ccccc7-8)c7c6OCCO7)c6nsnc46)N=S=N5)c4c3OCCO4)cc21 (stereo not shown)		deionized water		critical aggregation concentration	0.107 mg/mL
CCC(c1nnnn1Cc1cccs1)N1CCN(c2nc3cc(N)cc(F)c3s2)CC1 (stereo not shown)	light scattering	DNase II reaction buffer		critical aggregation concentration	45 µM
O=C(Cc1ccc2ccccc2c1)N[C@H](Cc1ccccc1)C(=O)N[C@H](Cc1ccccc1)C(=O)N[C@H](Cc1ccc(O)cc1)C(=O)N[C@H](Cc1ccc(OP(=O)(O)O)cc1)C(=O)O	substrate, rheology	hydrogel	0.5 wt%, together with: alkaline phosphatase 1 U/mL	critical strain	1.5%
Nc1nc2c(ncn2CC(=O)N[C@@H](Cc2ccccc2)C(=O)N[C@@H](Cc2ccccc2)C(=O)N[C@@H](Cc2ccc(O)cc2)C(=O)O)c(=O)[nH]1	oscillatory rheology	hydrogel in water	2.0 wt%, pH 5.0 or 7.4, together with: alkaline phosphatase at pH 7.4	critical strain	2%
COC(=O)[C@H](Cc1ccccc1)NC(=O)[C@H](Cc1ccccc1)NC(=O)CCC(=O)N[C@@H](Cc1ccccc1)C(=O)N[C@@H](Cc1ccccc1)C(=O)OC	surface tension tensiometry			critical aggregation concentration	1.2 mg/mL
NCCNC(=O)[C@H](Cc1ccccc1)NC(=O)[C@H](Cc1ccccc1)NC(=O)CNC(=O)c1cc(C(=O)NCC(=O)N[C@@H](Cc2ccccc2)C(=O)N[C@@H](Cc2ccccc2)C(=O)NCCN)cc(C(=O)NCC(=O)N[C@@H](Cc2ccccc2)C(=O)N[C@@H](Cc2ccccc2)C(=O)NCCN)c1	Nile Red fluorescence	150 mM NaCl	pH 4.0, room temperature	critical aggregation concentration	467 µM
